Published values gathered from unrelated publications.
Numbers after ± are the reported error.

SMILES | test | system | setting | tissue uptake
CCCC[C@H](NC(=O)CNC(=O)CNC(=O)[C@H](CCCCNC(=O)[C@H](CC(=O)O)NC(=O)C(C)c1ccc(CC(C)C)cc1)NC(=O)CN1CCN(CC(=O)O)CCN(CC(=O)O)CCN(CC(=O)O)CC1)C(=O)N[C@H]1CC(=O)NCCCC[C@@H](C(N)=O)NC(=O)[C@H](Cc2c[nH]c3ccccc23)NC(=O)[C@H](CCCNC(=N)N)NC(=O)[C@@H](Cc2ccccc2)NC(=O)[C@H](Cc2c[nH]cn2)NC1=O (some centres unmarked) [lutetium-177 labelled] |  | C57 mice, tumour-bearing, stomach | intravenous, 0.037 MBq, 24 h | 0.24 ± 0.06 %ID/g
CC(C)C[C@H](NC(=O)[C@@H](CCCCNC(=O)[C@@H](Cc1ccccc1)NC(=O)CCCCCCCNC(=O)CN1CCN(CC(=O)O)CCN(CC(=O)O)CCN(CC(=O)O)CC1)NC(=O)[C@H](Cc1ccc(O)cc1)NC(=O)[C@H](CO)NC(=O)[C@H](Cc1c[nH]c2ccccc12)NC(=O)[C@H](Cc1c[nH]cn1)NC(=O)[C@@H]1CCC(=O)N1)C(=O)N[C@@H](CCCNC(=N)N)C(=O)N1CCC[C@H]1C(=O)NCC(N)=O [indium-111 labelled] | biodistribution | male athymic nude mice, DU-145 prostate cancer xenograft, pancreas | intravenous, 0.037 MBq, 4 h post-injection | 0.08 ± 0.02 %ID/g
COc1ccc(Nc2nc(Nc3ccc(OCCOCC[18F])cc3)ncc2Br)cc1 |  | ICR mice, S180 tumour-bearing, bone | intravenous, 370 kBq, 30 min | 3.84 ± 0.63 %ID/g
COc1ccc2c(c1)C(C)(C)C(/C=C/C1=C(Oc3ccc(C(=O)NCCCCOc4cc(CN(Cc5ccccn5)Cc5ccccn5)cc(CN(Cc5ccccn5)Cc5ccccn5)c4)cc3)C(=C/C=C3/N(CCCCS(=O)(=O)[O-])c4ccc(OC)cc4C3(C)C)CCC1)=[N+]2CCCCS(=O)(=O)[O-].O=[N+]([O-])[O-].O=[N+]([O-])[O-].[99Tc+].[C-]#[O+].[C-]#[O+].[C-]#[O+].[Zn+2] |  | BALB/c mice, S. aureus myositis, lungs | 12 h post-injection | 8.22 %ID/g
Cc1cc(C)n(CCN(CCN)CCCCCCNC(=O)[C@@H](N)Cc2c[nH]cn2)n1.[99Tc+].[C-]#[O+].[C-]#[O+].[C-]#[O+] |  | BALB/c nude mice, A549 xenograft, intestine | intravenous, 24 h | 1.1 ± 0.17 %IA/g
COc1ccc(Nc2nc(Nc3ccc(OCCOCCOCC[18F])cc3)ncc2Br)cc1 |  | ICR mice, S180 tumour, stomach | intravenous, 370 kBq, 30 min | 1.54 ± 0.1 %ID
O=C(NCC1OC2CCC=CCCC2O1)c1ccc([18F])nc1 (centres unmarked) |  | healthy female BALB/c nude mice, large intestine | intravenous, 7.4 MBq per mouse, 120 min | 5.1 ± 0.2 %ID/g
CCCC[C@H](NC(=O)COCCOCCNC(=O)CN1CCN(CC(=O)O)CCN(CC(=O)O)CC1)C(=O)N[C@H]1CC(=O)NCCCC[C@@H](C(N)=O)NC(=O)[C@H](Cc2c[nH]c3ccccc23)NC(=O)[C@H](CCCNC(=N)N)NC(=O)[C@@H](Cc2ccccc2)NC(=O)[C@H](Cc2c[nH]cn2)NC1=O [fluorine-18 labelled] |  | C57 mice B16-F10 melanoma, heart | intravenous, 0.37 MBq, 0.5 h | 1.03 ± 0.13 %ID/g

Some of these lines once more:
SMILES | test | system | setting | tissue uptake
CCCC[C@H](NC(=O)COCCOCCNC(=O)CN1CCN(CC(=O)O)CCN(CC(=O)O)CC1)C(=O)N[C@H]1CC(=O)NCCCC[C@@H](C(N)=O)NC(=O)[C@H](Cc2c[nH]c3ccccc23)NC(=O)[C@H](CCCNC(=N)N)NC(=O)[C@@H](Cc2ccccc2)NC(=O)[C@H](Cc2c[nH]cn2)NC1=O [fluorine-18 labelled] |  | C57 mice B16-F10 melanoma, heart | intravenous, 0.37 MBq, 0.5 h | 1.03 ± 0.13 %ID/g
